Assay results collected from several papers.
“And” joins repeats or separate records; there may be more than shown. ± marks the error that the study gave.
UniProt P53355, sequence (whole entry, looked up): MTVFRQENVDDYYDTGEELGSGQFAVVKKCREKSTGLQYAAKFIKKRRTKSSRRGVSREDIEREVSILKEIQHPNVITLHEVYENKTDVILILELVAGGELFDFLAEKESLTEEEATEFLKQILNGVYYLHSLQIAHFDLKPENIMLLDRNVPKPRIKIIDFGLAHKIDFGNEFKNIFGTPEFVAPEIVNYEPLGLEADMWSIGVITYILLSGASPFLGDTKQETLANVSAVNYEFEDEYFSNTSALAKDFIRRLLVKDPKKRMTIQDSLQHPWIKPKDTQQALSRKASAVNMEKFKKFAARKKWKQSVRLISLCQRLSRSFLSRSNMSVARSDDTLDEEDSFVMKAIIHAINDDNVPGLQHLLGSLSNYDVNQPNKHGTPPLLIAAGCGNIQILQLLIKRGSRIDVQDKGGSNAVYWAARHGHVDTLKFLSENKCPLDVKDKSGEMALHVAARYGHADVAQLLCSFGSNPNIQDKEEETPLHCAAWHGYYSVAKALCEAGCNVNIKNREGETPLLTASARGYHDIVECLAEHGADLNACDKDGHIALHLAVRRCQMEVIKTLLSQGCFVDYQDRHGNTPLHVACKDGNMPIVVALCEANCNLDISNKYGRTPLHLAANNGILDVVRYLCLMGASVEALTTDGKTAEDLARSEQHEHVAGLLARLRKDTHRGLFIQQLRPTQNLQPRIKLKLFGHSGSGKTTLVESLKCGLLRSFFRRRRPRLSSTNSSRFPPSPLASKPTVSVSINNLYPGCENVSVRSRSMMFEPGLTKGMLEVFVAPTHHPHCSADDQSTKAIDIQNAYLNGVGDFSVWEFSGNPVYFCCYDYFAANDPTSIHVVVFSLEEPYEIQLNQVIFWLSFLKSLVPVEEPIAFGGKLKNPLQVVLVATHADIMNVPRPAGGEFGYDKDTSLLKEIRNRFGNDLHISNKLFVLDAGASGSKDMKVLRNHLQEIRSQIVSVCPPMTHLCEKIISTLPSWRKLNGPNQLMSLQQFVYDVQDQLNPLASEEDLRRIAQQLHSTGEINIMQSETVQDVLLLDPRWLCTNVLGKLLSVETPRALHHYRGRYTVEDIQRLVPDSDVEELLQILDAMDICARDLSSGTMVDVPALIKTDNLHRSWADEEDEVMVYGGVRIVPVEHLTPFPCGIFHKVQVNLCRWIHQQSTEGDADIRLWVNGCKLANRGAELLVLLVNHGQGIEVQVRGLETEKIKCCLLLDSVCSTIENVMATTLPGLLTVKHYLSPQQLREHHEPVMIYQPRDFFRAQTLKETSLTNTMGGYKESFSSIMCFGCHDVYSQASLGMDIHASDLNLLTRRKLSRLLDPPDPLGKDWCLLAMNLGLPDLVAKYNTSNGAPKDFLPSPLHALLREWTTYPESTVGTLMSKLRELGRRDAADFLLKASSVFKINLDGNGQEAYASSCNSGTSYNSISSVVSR
UniProt Q13557, sequence (whole entry, looked up): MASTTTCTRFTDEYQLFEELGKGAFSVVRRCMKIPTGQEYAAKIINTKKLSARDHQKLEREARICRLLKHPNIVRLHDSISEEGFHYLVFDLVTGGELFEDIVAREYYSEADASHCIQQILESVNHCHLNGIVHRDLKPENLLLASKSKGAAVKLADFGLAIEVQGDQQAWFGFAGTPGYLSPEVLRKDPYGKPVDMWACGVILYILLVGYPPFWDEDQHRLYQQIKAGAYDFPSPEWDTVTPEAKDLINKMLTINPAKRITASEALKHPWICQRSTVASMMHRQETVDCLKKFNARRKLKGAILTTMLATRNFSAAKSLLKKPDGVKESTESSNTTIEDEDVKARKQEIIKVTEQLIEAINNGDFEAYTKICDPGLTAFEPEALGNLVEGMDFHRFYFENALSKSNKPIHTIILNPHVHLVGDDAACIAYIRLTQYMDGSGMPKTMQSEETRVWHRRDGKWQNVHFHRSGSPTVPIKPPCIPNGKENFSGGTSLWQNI

Cc1ccc(NS(=O)(=O)c2c(C(=O)N3CCCCCC3)c(C)n(C)c2C)c(Cl)c1
viability (human cells; 0.137 µM, 60 h): 98.4%

NC[C@]1(CC(=O)O)CC[C@H]([18F])CC1
fast-phase half-life (PET, arterial plasma; rhesus monkey, plasma parent; intravenous, baseline): 2.86 min

CN(C)[C@H]1C[C@@]23CC[C@@]4(O2)C(=CC[C@]2(C)[C@@H](c5ccc6ccncc6c5)CC[C@H]24)C=C3[C@@H](O)[C@@H]1O
inhibition (Dual specificity mitogen-activated protein kinase kinase 1 (MAP2K1, Homo sapiens, UniProt Q02750); ATP probe labelling, inhibitor, KiNativ profiling; 0.1 µM): -18.8%

CC(C)[C@H]1NC(=O)C[C@H]2/C=C/CCSSC[C@@H](NC1=O)C(=O)N[C@H](Cc1cccc3ccccc13)C(=O)NCC(=O)O2
inhibition (Death-associated protein kinase 1 (DAPK1, Homo sapiens, UniProt P53355); enzyme activity, inhibitor; 10 µM): 0.8%

Cc1nc2cccc(OCC(C)(C)C(=O)NC(C)C)c2c(N)c1C(=O)[O-].[Na+]
revertant colonies per plate (Salmonella typhimurium; TA1537; 5.0 mg per plate, without S9, preincubation): 6 ± 4

Cc1cc(-c2ccc3ccccc3c2)nnc1NCCN1CCN(C)CC1
recovery (Caco-2; Caco-2 permeability; apical to basolateral; 5 µM, 0.5 h, with: valspodar 1.0 µM): 53%

CCOc1ccc(CN2CC[C@H]2C(=O)NC)cc1-c1cccc(C(=O)NC[C@@H]2COC(C)(C)O2)c1
viability (Huh-7-ACE2; CellTiter-Glo; 0.000763 µM, 48 h, unit not given; reference: DMSO): 0.904 and 0.829 and 0.895

CC(C)(C)C(=O)OCOP(=O)(OCOC(=O)C(C)(C)C)C1CCCN(O)C1=O (stereo not shown)
log LC50 (ACHN): > -4 log M

O=C1NC(=O)c2c1c1cc(F)c[n+]3c1c1c2c2cc(O)ccc2[n]1[Ru-4]312([N]=C=S)[S+]3CC[S+]1CC[S+]2CC3 (stereo not shown)
remaining activity (Calcium/calmodulin-dependent protein kinase type II subunit delta (CAMK2D, Homo sapiens, UniProt Q13557); enzyme activity; 100 nM, human enzyme, with: 10 µM ATP; reference: untreated): 5%

CC[C@H](C)[C@H](NC(=O)[C@H](CO)NC(=O)[C@H](Cc1ccc(O)cc1)NC(=O)[C@H](Cc1ccc(O)cc1)NC(=O)[C@H](CC(N)=O)NC(=O)CNC(=O)[C@H](CO)NC(=O)[C@H](Cc1ccc(O)cc1)NC(=O)[C@H](CO)NC(=O)[C@H](CO)NC(=O)[C@H](CC(N)=O)NC(=O)COCCOCCNC(=O)CN1CCN(CC(=O)O)CCN(CC(=O)O)CCN(CC(=O)O)CC1)C(=O)N[C@@H](CC(C)C)C(N)=O [copper-64 labelled]
tissue uptake (dynamic PET; KPC mouse Ptf1a-CreER tdTomato, metastases; intravenous, 4.6 MBq/mouse, 27.5 min, 84 d after tamoxifen): 13.3 %ID/mL

CNC(=O)C[C@H](Cc1ccncc1)NC(=O)[C@@H](Cc1cccc(Br)c1)NC(=O)[C@@H](N)Cc1cccc(F)c1
viability (Huh-7-ACE2; CellTiter-Glo; 0.000191 µM, 48 h, unit not given; reference: DMSO): 1.12 and 1.05 and 1.01

CC(=O)NCCCC[C@@H]1NC(=O)[C@H](Cc2c[nH]c3c(C)cccc23)NC(=O)[C@H]([C@@H](C)O)NC(=O)[C@H](CC(N)=O)NC(=O)[C@@H](NC(C)=O)C(C)(C)SSC(C)(C)[C@@H](C(=O)N[C@@H](Cc2ccc(OCCN)cc2)C(=O)N[C@@H](Cc2ccc3ccccc3c2)C(=O)NC2(C(=O)N[C@@H](CCC(=O)O)C(=O)N[C@@H](CC(N)=O)C(=O)N[C@@H](Cc3cccnc3)C(=O)N(C)CC(N)=O)CCOCC2)NC1=O
efflux ratio (ATP-dependent translocase ABCB1 (ABCB1, Homo sapiens, UniProt P08183); transport, inhibitor; LLC-PK1 expressing MDR1; 30 µM, 90 min, with: [3H]digoxin): 15.4

COc1ccc(-n2cc(C(=O)N3C[C@]4(OC(=O)c5ccccc5NC(C)=O)CC[C@H](OC)[C@@]56[C@@H]4C[C@@H]([C@@H]35)[C@@]3(O)C[C@H](OC)[C@H]4C[C@@H]6[C@]3(O)[C@H]4OC)nn2)cc1
plasma concentration (Sprague-Dawley rat, plasma; intravenous, 2 mg/kg, 0.167 h): 66.8 ng/mL

C[C@@H](c1ccc2nccn2c1)n1nnc2ncc(-c3cn[nH]c3)nc21
IC50 (Cytochrome P450 2C19 (CYP2C19, Homo sapiens, UniProt P33261); enzyme activity, inhibitor; human, liver microsomes): > 50 µM

COc1ccccc1-c1n[nH]c2nc(NC3CCN(C(=O)Cc4ccc(F)cc4F)CC3)ncc12
relative abundance (bead binding, competition bead pull-down, refers to: LMJF.05.0030; Leishmania donovani extract; 10 µM; reference: vehicle): 1.03

CNC(=O)C[C@H](Cc1ccc(F)cc1)NC(=O)[C@@H](Cc1ccc(Cl)cc1Cl)NC(=O)[C@H](N)Cc1ccccc1[N+](=O)[O-]
viability (Huh-7-ACE2; CellTiter-Glo; 6.25 µM, 48 h, unit not given; reference: DMSO): 0.912 and 0.993 and 0.947

COc1cc2c(cc1NC(=O)c1cncn1C)C[C@H]1[C@H]3CCCC[C@@]23CCN1C
plasma concentration (C57BL/6 mouse, plasma; oral, 50 µg/g, 120 min): 5650 ng/mL

CNC(=O)CC1CN(C(=O)c2ccc(C(F)(F)F)cn2)CCN1C(=O)c1cccnn1 (stereo not shown)
viability (Huh-7-ACE2; CellTiter-Glo; 0.000191 µM, 48 h, unit not given; reference: DMSO): 1.06 and 1.14 and 1.13

O=C1NC2(CC2)COc2ncc(F)cc2[C@H]2COCCN2c2ccn3ncc1c3n2
organ-to-brain weight ratio (Sprague-Dawley rat, female, thymus; oral, 5 mg/kg/day, 4 weeks dosing, end of recovery): 20.3 ± 5.29%

Repeated from above:
CNC(=O)C[C@H](Cc1ccncc1)NC(=O)[C@@H](Cc1cccc(Br)c1)NC(=O)[C@@H](N)Cc1cccc(F)c1
viability (Huh-7-ACE2; CellTiter-Glo; 0.000191 µM, 48 h, unit not given; reference: DMSO): 1.12 and 1.05 and 1.01

CN(C)[C@H]1C[C@@]23CC[C@@]4(O2)C(=CC[C@]2(C)[C@@H](c5ccc6ccncc6c5)CC[C@H]24)C=C3[C@@H](O)[C@@H]1O
inhibition (Dual specificity mitogen-activated protein kinase kinase 1 (MAP2K1, Homo sapiens, UniProt Q02750); ATP probe labelling, inhibitor, KiNativ profiling; 0.1 µM): -18.8%

CCOc1ccc(CN2CC[C@H]2C(=O)NC)cc1-c1cccc(C(=O)NC[C@@H]2COC(C)(C)O2)c1
viability (Huh-7-ACE2; CellTiter-Glo; 0.000763 µM, 48 h, unit not given; reference: DMSO): 0.904 and 0.829 and 0.895
